Assay results from different studies.
Each numbered part is a random draw from the data of one study; scales do not carry over between parts. Positions count from the first letter of the parent shown.

Set 1
Target: FOXO3, forkhead domain (mouse, UniProt Q9WVH4, residues 31-263)
UniProt Q9WVH4, sequence (31-263, looked up): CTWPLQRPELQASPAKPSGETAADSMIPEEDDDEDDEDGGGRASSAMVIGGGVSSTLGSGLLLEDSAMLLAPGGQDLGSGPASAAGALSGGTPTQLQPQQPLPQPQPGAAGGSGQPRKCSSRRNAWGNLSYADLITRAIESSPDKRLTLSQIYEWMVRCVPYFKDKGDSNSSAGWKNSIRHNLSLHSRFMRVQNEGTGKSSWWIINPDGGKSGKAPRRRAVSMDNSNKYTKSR
Method: protein-binding microarray
Molecule type: hairpin DNA
Matrix: in vitro
Tested at: not given
Setting: whole hairpin DNA, median over replicate spots
Relative to: not given
Reading: higher = stronger binding
Measurement: median fluorescence
GAGGCCATACAAACAACGCCTCCTGGCGTTGTTTGTATGGCCTCACACTC: 4720 a.u.
GAGGCCATGTTACCAACGCCTCCTGGCGTTGGTAACATGGCCTCACACTC: 4090 a.u.
GAGGCCATGTGACCAACGCCTCCTGGCGTTGGTCACATGGCCTCACACTC (5mC at 34): 4280 a.u.
GAGGCCCTGCAAACAACGCCTCCTGGCGTTGTTTGCAGGGCCTCACACTC: 4940 a.u.
GAGGCCATGTAAACAAGGCCTCCTGGCCTTGTTTACATGGCCTCACACTC (5mC at 28): 4960 a.u.
GAGGCCATGTAAACACCGCCTCCTGGCGGTGTTTACATGGCCTCACACTC: 5190 a.u.
GAGGCCATGTAACCCGCGCCTCCTGGCGCGGGTTACATGGCCTCACACTC (5mC at 29): 4550 a.u.
GAGGCCTTGTAACCAACGCCTCCTGGCGTTGGTTACAAGGCCTCACACTC: 3690 a.u.
GAGGCCATGCAAACAGCGCCTCCTGGCGCTGTTTGCATGGCCTCACACTC: 4890 a.u.
GAGGCCATGTAAACCGCGCCTCCTGGCGCGGTTTACATGGCCTCACACTC (5mC at 15): 4330 a.u.
GAGGCCATCGAAACAACGCCTCCTGGCGTTGTTTCGATGGCCTCACACTC: 4420 a.u.
GAGGCCATGTAACCAGCGCCTCCTGGCGCTGGTTACATGGCCTCACACTC: 4310 a.u.

Set 2
Target: CCND1, cyclin fold, Cln2 fusion (human)
Method: yeast growth competition, sequencing
Matrix: yeast
Setting: strong parent motif
Relative to: not given
Reading: higher = stronger binding
Measurement: normalised enrichment score
Parent: SCAPER docking peptide (human); SNARRSLNFGGST
R5Q: 0.293
L7A: 1.05
G11Q: 0.937
N2I: 0.767
S12N: 1.2
F9P: -0.00375
A3T: 0.724
R4T: 0.774
A3W: 0.108
F9K: -0.319
N2M: 0.323
L7S: -0.0106

Set 3
Target: RNA binding protein fox-1 homolog 2, RRM domain, GST-SBP tag (RBFOX2, Homo sapiens, UniProt O43251-10, residues 100-194)
Method: RNA Bind-n-Seq
Molecule type: RNA
Matrix: in vitro
Tested at: 365 nM
Setting: natural RNA segment, single round, ends assumed
Relative to: no-protein control
Reading: higher = stronger binding
Measurement: RBNS enrichment (R)
Residues (chain): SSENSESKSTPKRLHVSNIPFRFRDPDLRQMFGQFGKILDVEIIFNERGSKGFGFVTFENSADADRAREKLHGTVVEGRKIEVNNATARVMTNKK
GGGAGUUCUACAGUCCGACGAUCACAAUCACUUUUUAAAUGACUUUUUGAGCCUUAAAUCCAUAUUCACUUGUGAGAAUCAGGAAAGAAUUCCUCGAGUUGCUUUGCAUCCUCUUGGACCAGGGCUUGCAAGGUGGAAUUCUCGGGUGCCAA: 0.541
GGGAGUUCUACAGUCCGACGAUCUGCGGUUGGUCAUACUGAAGGGAAUUGAUGGCAAGAGGAUCCCCUGAGCAAGUCAGAAGUUACUCUCAUCAGUCGUUCAUGGUCACAACCUGAGGUACUCUGCUGAGUGGUGGAAUUCUCGGGUGCCAA: 0.291
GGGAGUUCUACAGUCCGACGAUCUAGGCUGCAGGGGUGCCAAUGGCAGAGGCACUGGUAGAGAUCAUUUGGACACUGGAGUUGAAAGUUACAGGCAAUCUGUUACACUUGGCUCUGAAUCCUAUGAAUCAAGGUGGAAUUCUCGGGUGCCAA: 0.545
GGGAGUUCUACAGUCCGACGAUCGUUUCUGAGUCUGUGUUGCAGCCUCUGACACGUGGCUCACCGCUGUCAUUUGGGGGAUGGAAUGAACAGUCACUGUUCUAUAGCAUCCUCCUGUGCUCUUACCUAAGGAAUGGAAUUCUCGGGUGCCAA: 0.223
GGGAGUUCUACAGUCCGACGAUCUGGCCUCUGCCUGGGGCCUCCAGAAGCUGCUCCUUUACCCUCUUGGUCCCAUGGCUGAAGCUGGAGCAGCGGAUUGCUCUGGAGCAGCCAAGGCCGCCAGCGUGUGGAGCUGGAAUUCUCGGGUGCCAA: 0.253
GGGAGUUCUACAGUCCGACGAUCCUUCCCUUCAGCAGCCUCCCAGACCUCCCCAUUCUUCCAGGAUGCUGUCUGCCAGGUCACCACUCUGAUACCCAGCGUUCUCUGGUUGCUCUCUGUUUCCAGUGAUUAAAUGGAAUUCUCGGGUGCCAA: 0.372
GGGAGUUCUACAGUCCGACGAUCAUGAGGCAGGUGAGAGAUGUUUGAAUUUUUCUCUUCCUUUUAGUAUUCUUAGUUGUUCAGUUGCCAAGGAUCCCUGAUCCCAUUUUCCUCUGACGUCCACCUCCUACCCCUGGAAUUCUCGGGUGCCAA: 0.404
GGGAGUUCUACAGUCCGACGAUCUGUAACAUUUUAUGCUUUUAAAAUCAAUAGAUUCAUCACCUUAGUUUUUUAAAAAAAAUCUAUAAAUAGGGUAAUUGCUGAGGUGUGCGGUUUAUCUUUGAGAUGAUAAAUGGAAUUCUCGGGUGCCAA: 0.574
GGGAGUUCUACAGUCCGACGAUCGCCAUGCCCUAAAACACUCACACCUGUAAACCCAGUCCUUAGGAGACUGAGGCAGGAGGAUCCCUGUGAGUUCCAGGCCAGUCUAAGCUGCAGAGGGAAAGCGUCUCAAAUGGAAUUCUCGGGUGCCAA: 0.385
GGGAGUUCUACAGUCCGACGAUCCUUCCCAUCACUUUUCAGUUUCAGAUUGAAGACUCACGAUUGGUUCCACCUUACAAGCAAGGAAAGGAAUAUUGACCUUCAAACUCAUUCAGUGUUGGAGCUCUCUAUGAUGGAAUUCUCGGGUGCCAA: 0.425
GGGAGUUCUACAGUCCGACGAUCAACCCAAAAAUUACAGUACCAAAUGAUUGACUCAGGAUUGUUUUUCCCAUAUUGAUAUGCUGGCAAUAUAGGAUGGUAUGUGGUGAAGAAGACUAAUGCAGGUGGUUGAAUGGAAUUCUCGGGUGCCAA: 2.01
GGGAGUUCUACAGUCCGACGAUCUGUCUGCCACACUCAGCAGGCCCUGUAGUGGUUCUCAUUUUGGCAUCUGGCUGGCUGCCUGCCUUAAACCCCCACCAAAGCUCCUUUUCAUAAAGGGGCUACCUUGAGAGUGGAAUUCUCGGGUGCCAA: 0.371

Other studies, line by line
PhoQ, residues 284 288 289 292 302 303 WSHMKI  fold induction (PhoP, residues 12 14 15 18 19 HEGLL (Escherichia coli, UniProt P23836); Sort-seq, item: YFP reporter; E. coli; PhoQ-PhoP variant library, added: 10 µM Mg2+; relative to: high Mg2+ state, higher = stronger signaling): 1.24

Some of these lines once more (set 2):
F9K: -0.319
N2M: 0.323
L7S: -0.0106
